# Results gathered from unrelated publications.
# Numbered parts are unrelated; each lists some results of a single study. Substitutions count along the parent as printed.

# Study 1
# Target: tungstate, free oxyanion
# Method: microfluidic competitive inhibition
# Sample: in vitro, cell-free expressed
# Concentration: not given
# Notes: derived from inhibition constants, unchanged parent 2230 nM
# Direction: lower = stronger binding
# Starting sequence: PafA, mature enzyme, eGFP fusion (Elizabethkingia meningoseptica, UniProt Q9KJX5); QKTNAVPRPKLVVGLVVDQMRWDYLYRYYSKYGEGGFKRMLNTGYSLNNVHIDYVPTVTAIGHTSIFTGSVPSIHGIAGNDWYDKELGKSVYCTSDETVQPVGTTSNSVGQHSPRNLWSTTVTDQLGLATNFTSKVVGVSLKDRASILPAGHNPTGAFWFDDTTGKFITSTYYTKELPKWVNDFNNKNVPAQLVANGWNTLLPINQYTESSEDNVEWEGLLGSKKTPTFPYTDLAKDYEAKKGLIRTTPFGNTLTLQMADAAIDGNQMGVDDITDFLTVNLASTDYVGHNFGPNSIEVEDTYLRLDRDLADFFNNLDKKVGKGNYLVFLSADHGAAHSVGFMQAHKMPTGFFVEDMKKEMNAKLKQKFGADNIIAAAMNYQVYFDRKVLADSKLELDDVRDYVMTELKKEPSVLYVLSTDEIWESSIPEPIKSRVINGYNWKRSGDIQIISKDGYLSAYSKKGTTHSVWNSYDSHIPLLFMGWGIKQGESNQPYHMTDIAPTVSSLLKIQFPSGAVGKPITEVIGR
Substitution,oxyanion analog dissociation constant
N131V,2.05 µM
L506G,1.24 µM
L25G,2.5 µM
E429G,1.79 µM
A362V,2.66 µM
Q257V,2.39 µM
S108G,2.34 µM
L277G,2.46 µM
T123V,1.8 µM
A145V,489 µM
G321V,2.1 µM
G288A,1.35 µM
D96G,< 83.8 nM
F132G,1.87 µM
N42V,2.43 µM
P203G,1.86 µM
D317G,1.4 µM

# Study 2
# Target: CCNE1, cyclin fold, Cln2 fusion (human)
# Method: yeast growth competition, sequencing
# Sample: yeast
# Notes: strong parent motif
# Baseline: not given
# Direction: higher = stronger binding
# Starting sequence: viral docking peptide; YKVKRRLVFGADD; partner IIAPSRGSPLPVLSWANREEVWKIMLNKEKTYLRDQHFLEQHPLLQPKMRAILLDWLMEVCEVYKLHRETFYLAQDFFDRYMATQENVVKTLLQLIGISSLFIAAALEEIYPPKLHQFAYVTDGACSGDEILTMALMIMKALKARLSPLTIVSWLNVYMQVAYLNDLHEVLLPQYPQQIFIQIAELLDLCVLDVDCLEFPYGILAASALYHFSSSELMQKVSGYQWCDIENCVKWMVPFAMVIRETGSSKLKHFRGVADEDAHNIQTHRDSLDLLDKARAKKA
Substitution,normalised enrichment score
YKVKRRLQFGADD [V8Q],5.89
YKVKRRLLFGADD [V8L],5.57
YCVKRRLVFGADD [K2C],5.96
YKVKRPLVFGADD [R6P],0.45
YKVFRRLVFGADD [K4F],1.28
YKVKIRLVFGADD [R5I],0.806
YKKKRRLVFGADD [V3K],0.431
YKVKRRLHFGADD [V8H],5.92
YKVKRRMVFGADD [L7M],0.55
YKVKRRLVWGADD [F9W],2.6
YKVKRRLVFNADD [G10N],5.9
YKVKRRLVPGADD [F9P],0.124
YKVKRRLVFGRDD [A11R],5.5
YKVKRRLVFGFDD [A11F],6.03
YKVKRRLCFGADD [V8C],5.74
YKVCRRLVFGADD [K4C],5.71
YKNKRRLVFGADD [V3N],0.368
YKVKRRLVFKADD [G10K],4.31
YKVKRNLVFGADD [R6N],1.02
YKVKCRLVFGADD [R5C],0.845
YKVKRRLVFGATD [D12T],5.04
YKVKRRLVFGACD [D12C],5.23
YKVKRRSVFGADD [L7S],0.636
YKVKRRLVQGADD [F9Q],0.293
YMVKRRLVFGADD [K2M],5.64

# Study 3
# Target: Protein max, full length (MAX, Homo sapiens, UniProt P61244-2, residues 1-151)
# Method: protein-binding microarray
# Molecule type: double-stranded DNA, one strand shown
# Sample: in vitro
# Concentration: not given
# Notes: k-mer, scored over probes, only values ≥0.25
# Direction: higher = stronger binding
Oligonucleotide,E-score
ATGCCACA,0.292
GTGACACA,0.256
AGCGTGCA,0.429
CGTGTGTA,0.385
ATGGGGGC,0.282
CCACCCAC,0.282
CGTGCCCC,0.335
CATGGCTA,0.339

# Further values, each from its own experiment
# Method: cross-linking MS
Substance,partner,sample,notes,with,endpoint,result
"FARSB (Homo sapiens, UniProt Q9NSD9)","FARSA (Homo sapiens, UniProt Q9Y285)",,hits only,,interaction screen,cross-linked
"TMED10 (Homo sapiens, UniProt P49755)","TMED2 (Homo sapiens, UniProt Q15363)",cell fractions,,DMTMM,cross-linked residues,K143 to E131
"NUP98 (Homo sapiens, UniProt P52948)","NUP160 (Homo sapiens, UniProt Q12769)",,hits only,,interaction screen,cross-linked
"EBNA1BP2 (Homo sapiens, UniProt Q99848)","DDX18 (Homo sapiens, UniProt Q9NVP1)",cell fractions,,DSSO,cross-linked residues,K45 to K656

# A few entries again (study 2):
Substitution,normalised enrichment score
YKVKIRLVFGADD [R5I],0.806
YKVKRRLCFGADD [V8C],5.74
YKVKRRLLFGADD [V8L],5.57
YKVKRNLVFGADD [R6N],1.02
